Measurements pooled from the literature.
Each line is one published result; not all experiments were run side by side. “And” joins repeats or separate records; there may be more than shown. ± marks the error that the study gave.
TDP1: Tyrosyl-DNA phosphodiesterase 1 (TDP1, Homo sapiens, UniProt Q9NUW8)
UniProt Q9NUW8, sequence (whole entry, looked up): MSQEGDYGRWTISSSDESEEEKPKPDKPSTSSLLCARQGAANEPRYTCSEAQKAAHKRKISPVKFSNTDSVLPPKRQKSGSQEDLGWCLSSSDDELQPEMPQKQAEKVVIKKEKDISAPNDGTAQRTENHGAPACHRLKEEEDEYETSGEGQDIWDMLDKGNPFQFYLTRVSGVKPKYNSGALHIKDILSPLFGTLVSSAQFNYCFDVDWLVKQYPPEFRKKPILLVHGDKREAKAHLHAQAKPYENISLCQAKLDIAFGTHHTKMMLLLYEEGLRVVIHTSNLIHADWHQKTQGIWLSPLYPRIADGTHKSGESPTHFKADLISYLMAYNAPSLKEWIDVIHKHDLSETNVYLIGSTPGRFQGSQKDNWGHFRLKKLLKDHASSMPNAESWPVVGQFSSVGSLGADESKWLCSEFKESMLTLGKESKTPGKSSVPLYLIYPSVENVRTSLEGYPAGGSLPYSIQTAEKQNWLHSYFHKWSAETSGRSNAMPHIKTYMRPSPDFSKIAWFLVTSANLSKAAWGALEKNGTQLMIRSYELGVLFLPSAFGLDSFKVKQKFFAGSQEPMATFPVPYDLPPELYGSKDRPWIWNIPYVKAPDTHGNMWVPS

| Compound | tested on | assay | setting | how to read | endpoint | value |
| --- | --- | --- | --- | --- | --- | --- |
| CC(C)Cc1ccc(C(C)C(=O)[Se]CC(=O)Nc2cccc(C(F)(F)F)c2)cc1 (centres unmarked) | NCI60 leukaemia subpanel | NCI60 five-dose screen |  |  | GI50 | 1970 nM |
| CCN(CC)CC(=O)Nc1cccc(-n2cc(-c3ccc4ccc(-c5cn(-c6cccc(NC(=O)CN(CC)CC)c6)nn5)cc4c3)nn2)c1 | RCC4 | PCR angiogenesis array, item: ITGAV | 5 x IC50, 6 h, normoxia | baseline: untreated | fold regulation | -1.33 |
| COC(=O)c1cc(NC2=NC(=O)C(=Cc3ccc(N(C)C)cc3)S2)ccc1OC(C)=O | A549 | item: ODF2 | 2.93 µM, 24 h | baseline: DMSO | mRNA level | 0.0059 fold change |
| COc1cc(N(C)CCN(C)C)c(NC(=O)/C=C/c2cccc(CC#N)c2)cc1Nc1nccc(-c2cn(C)c3ccccc23)n1 | NCI-H1975 | cell growth or viability, MTT | 0.5 µM, 72 h |  | inhibition | 62.8% |
| CCN(C(=O)c1cc(F)ccc1Oc1nncnc1N1CCC2(C1)CN([C@H](CCCN(C)CCOC)C(C)C)C2)C(C)C | HCT-15 | cell growth or viability | 7 days |  | GI50 | > 10000 nM |
| Cc1ncsc1-c1ccc(C(C)NC(=O)C2CC(O)CN2C(=O)C(NC(=O)CCCCCCCCCCN2CCCC(Nc3ncc(Cl)c(Nc4ccccc4S(=O)(=O)C(C)C)n3)C2)C(C)(C)C)cc1 (centres unmarked) | 22Rv1 | RNA-seq, item: ZNF561 mRNA | concentration not given | baseline: DMSO | log2 fold change | -1.11 |
| CN(C)C=C(C=NOCc1ccc2nc(-c3ccccc3)c(Nc3ccc(C(=O)O)cc3)n2c1)c1ccccc1[N+](=O)[O-] (mixture of isomers) | TDP1 | enzyme activity, inhibitor | 100 µM, unpurified compound |  | inhibition | -0.4% |
| C=C(NC(=O)c1csc(-c2cccnc2)n1)C(=O)NC(=C)C(=O)OC | H-MESO-1 | cell viability, crystal violet | 24 h exposure, 48 h total |  | EC50 | 5100 nM |
| COc1cccc(OC)c1-c1cc(C(=O)NC2(C(=O)O)C3CC4CC(C3)CC2C4)nn1-c1ccc(C(=O)N(C)CCOCCOCCN(C)C(=O)[C@H](CCCCNC(=O)[C@H](CC(C)C)NC(=O)C2OC2C(=O)O)NC(=O)CN2CCN(CC(=O)[O-])CCN(CC(=O)[O-])CCN(CC(=O)[O-])CC2)cc1C(C)C.[177Lu+3] (mixture of isomers) | HT-29 |  | concentration not given, 60 min | baseline: added activity | internalized fraction | 0.83 ± 0.02% |
| O=C(C[Se]C(=O)c1ccccc1Nc1cccc(C(F)(F)F)c1)Nc1cccc(C(F)(F)F)c1 | NCI60 leukaemia subpanel | NCI60 five-dose screen |  |  | mean TGI | 4190 nM |
| COc1ccc(Br)c2c1OC1=C(C(=O)CCC1)C2c1c[nH]c2ccccc12 (centres unmarked) | 3T3-L1 preadipocytes | adipogenesis, Oil Red O staining | IC20, 14 days, single replicate |  | lipid content | 0.791 OD492 and 0.758 OD492 and 0.812 OD492 |
| O=C(O)c1ccc(Nc2c(-c3ccccc3)nc3ccc(CON=Cc4ccc(-n5cccn5)cc4)cn23)cc1 (mixture of isomers) | TDP1 | enzyme activity, inhibitor | 100 µM, unpurified compound |  | inhibition | 34% |
| O=CCNCCOn1c(=O)n(OCCNCCO)c(=O)n(OCCNCCOn2c(=O)n(OCCNCCO)c(=O)n(OCCNCCO)c2=O)c1=O | A549 | cell growth or viability, MTT | 50 µg/mL, 48 h |  | viability | 30.9% |
| Cc1cc(Cl)cc(-c2ccnc3cc(CN4C(=O)C5C(C4=O)C5(C)C)sc23)c1C[C@@H]1CNCCO1 (some centres unmarked) | CHP-212 resistant | annexin V/PI flow cytometry | 1 µM, 48 h |  | apoptotic cells | 12.3% |
| Cc1ncsc1-c1ccc([C@H](C)NC(=O)[C@@H]2C[C@@H](O)CN2C(=O)[C@@H](NC(=O)[C@H]2C[C@H](C(=O)N3CCC(c4cc(Nc5cc(C#N)ccn5)nc(N5CCC(F)(F)C5)c4)CC3)C2)C(C)(C)C)cc1 | CAL-33 with inducible wild-type LZK | MS proteomics, item: FILIP1L | 500 nM, 24 h, with: doxycycline | baseline: DMSO | protein level log2 fold change | 0.0147 |
| CC(C)c1ccc(N(C)c2ccc3c(c2)OCC[C@H]3CNc2cnccc2C(=O)O)cc1 | AGS | cell growth or viability, ATP luminescence | 7 days |  | IC50 | 6.19 nM |
| O=C(C[Se]C(=O)c1ccc2ccccc2c1)Nc1cccc(C(F)(F)F)c1 | NCI60 leukaemia subpanel | NCI60 five-dose screen |  |  | GI50 | 1720 nM |
| CNc1cncc(N2Cc3cnn(Cc4ccc(F)cc4)c3C2)n1 | HEK293 expressing GluA1 and GluA2 | glutamate excitotoxic cell death, CellTox Green | with: glutamate |  | IC50 | 3000 nM |
| Cc1ccc(-n2cc(CSc3nc4ccccc4n3Cc3cn(-c4ccc(C)cc4)nn3)nn2)cc1 | HEK293 | MTT | 250 ppm |  | cytotoxicity | 90.9% |
| CCc1n(CC(=O)O[C@@H]2C[C@H](C)CC[C@H]2C(C)C)c2ccccc2[n+]1C | HTS cells (mouse) | gene microarray, item: SLC7A3 | 1 µM, 24 h, unit not given | baseline: untreated | mRNA level | 9.51 |
| CNS(=O)(=O)Nc1nccc(Cc2c(C)c3ccc(Oc4ncccc4F)cc3oc2=O)c1F | CAL-27 | cell viability | 7 days |  | IC50 | > 1000 nM |

| Compound | tested on | assay | setting | how to read | endpoint | value |
| --- | --- | --- | --- | --- | --- | --- |
| COC(=O)c1cncc(N2Cc3cnn(Cc4ccc(F)cc4)c3C2)n1 | HEK293 expressing GluA1 and GluA2 | glutamate excitotoxic cell death, CellTox Green | with: glutamate |  | IC50 | 90 nM |
| O=C(C[Se]C(=O)c1ccccc1Nc1ccccc1)Nc1cccc(C(F)(F)F)c1 | NCI60 melanoma subpanel | cell growth, inhibitor | five-dose |  | GI50 | 1610 nM |
| COc1cc(N(C)CCN(C)C)c(NC(=O)/C=C/c2ccc3ccccc3c2)cc1Nc1nccc(-c2cn(C)c3ccccc23)n1 | NCI-H1975 | cell growth or viability, MTT | 0.5 µM, 72 h |  | inhibition | 70.1% |
| O=C(N1CCCC1)n1cc(-c2ccc(-c3ccccc3)cc2)nn1 | mouse T cells | N-terminal labelling proteomics, item: PAIP2B N-terminal peptides | 0.001 µM, 6 h | baseline: DMSO | SILAC ratio | 0.97 |
| CCc1ccc(-c2ccc(/C=C/C(=O)Nc3cc(Nc4nccc(-c5cn(C)c6ccccc56)n4)c(OC)cc3N(C)CCN(C)C)cc2)cc1 | NCI-H1975 | cell growth or viability, MTT | 0.5 µM, 72 h |  | inhibition | 58.4% |
| C=CS(=O)(=O)Oc1ccc(OC)c(-c2c[nH]c3ncc(-c4cncc(C(=O)N(C)C)c4)cc23)c1 | Ba/F3 BCR-ABL wild type | cell proliferation | 72 h |  | GI50 | 192 ± 4 nM |
| O=C(C[Se]C(=O)c1cccnc1Nc1cccc(C(F)(F)F)c1)Nc1cccc(C(F)(F)F)c1 | NCI60 CNS subpanel | NCI60 five-dose screen |  |  | mean TGI | 3820 nM |
| O=C1CCCC2=C1C(c1c[nH]c3ccccc13)c1cc(Br)ccc1O2 (centres unmarked) | 3T3-L1 preadipocytes | adipogenesis, Oil Red O staining | IC20, 14 days |  | mean lipid content | 0.616 OD492 |
| COc1ccc2c(c1)c(CC(=O)[Se]CC(=O)Nc1cccc(C(F)(F)F)c1)c(C)n2C(=O)c1ccc(Cl)cc1 | NCI60 leukaemia subpanel | NCI60 five-dose screen |  |  | mean TGI | 4630 nM |
| CN1CCCNC(=O)c2cccc(c2)C(=O)NCCCN(C)CCCNc2cccc3c2C(=O)c2cccc(c2C3=O)NCCC1 | SAS | RNA-Seq, item: SPACA9 mRNA | 1 µM, 6 h | baseline: untreated cells | log2 fold change | 1.77 |
| Nc1c(S(=O)(=O)O)cc(Nc2cccc(S(N)(=O)=O)c2)c2c1C(=O)c1ccccc1C2=O | primary mouse articular chondrocytes | Western blot, item: Phlpp2 | 25 µM, days 0-6 and 0-9 | baseline: vehicle | protein level | 50 to 70% |
| O=C(C[Se]C(=O)c1cc2ccccc2o1)Nc1cccc(C(F)(F)F)c1 | NCI60 CNS subpanel | cell growth | 10 µM, 48 h, one-dose |  | mean growth percent | -86.6% |
| COc1cc(N(C)CCN(C)C)c(NC(=O)/C=C/c2ccc(Cl)cc2)cc1Nc1nccc(-c2cn(C)c3ccccc23)n1 | NCI-H1975 | cell growth or viability, MTT | 0.5 µM, 72 h |  | inhibition | 70.2% |
| N#Cc1cccc(/C=C/C(=O)c2ccc(O)cc2)c1 | U-87 MG | item: SNHG11 | concentration not given | baseline: untreated | mRNA level | 0.059 fold |
| COc1cc(N(C)CCN(C)C)c(NC(=O)/C=C/c2ccc(-c3cccc4ccccc34)cc2)cc1Nc1nccc(-c2cn(C)c3ccccc23)n1 | NCI-H1975 | cell growth or viability, MTT | 0.5 µM, 72 h |  | inhibition | 51.5% |
| Cn1ncc2cc(-c3cncc(Cl)c3N3CCC4(CCNC4=O)CC3)ccc21 | LS174T | gene expression, microarray, item: HOXB5 mRNA | concentration not given, 4 h | baseline: untreated cells | log2 fold change | 1.38 |
| Cc1c(Cl)cccc1Nc1ccccc1C(=O)[Se]CC(=O)Nc1cccc(C(F)(F)F)c1 | NCI60 CNS subpanel | cell growth | 10 µM, 48 h, one-dose |  | mean growth percent | -85.4% |
| COc1ccc2c(c1)C(n1nnc3ccccc31)C1=C(CCCC1=O)O2 (centres unmarked) | 3T3-L1 preadipocytes | adipogenesis, Oil Red O staining | IC20, 14 days, single replicate |  | lipid content | 0.702 OD492 |
| CCOC(=O)c1ccc(-n2c(N)c(C#N)c(SC)c(C#N)c2=O)cc1 | HepG2 | cell growth or viability, MTT | 6.25 µM, 24 h |  | viability | 79.4% |
| CCCC(CCC)C(=O)OCc1cn(-c2cc3ccccc3oc2=O)nn1 | UACC-257 | NCI60 single-dose screen | 10 µM |  | growth percentage | 89.8% |

Repeated from above:
| Compound | tested on | assay | setting | how to read | endpoint | value |
| --- | --- | --- | --- | --- | --- | --- |
| COc1cc(N(C)CCN(C)C)c(NC(=O)/C=C/c2cccc(CC#N)c2)cc1Nc1nccc(-c2cn(C)c3ccccc23)n1 | NCI-H1975 | cell growth or viability, MTT | 0.5 µM, 72 h |  | inhibition | 62.8% |
| COc1cc(N(C)CCN(C)C)c(NC(=O)/C=C/c2ccc(Cl)cc2)cc1Nc1nccc(-c2cn(C)c3ccccc23)n1 | NCI-H1975 | cell growth or viability, MTT | 0.5 µM, 72 h |  | inhibition | 70.2% |
| COC(=O)c1cc(NC2=NC(=O)C(=Cc3ccc(N(C)C)cc3)S2)ccc1OC(C)=O | A549 | item: ODF2 | 2.93 µM, 24 h | baseline: DMSO | mRNA level | 0.0059 fold change |
| N#Cc1cccc(/C=C/C(=O)c2ccc(O)cc2)c1 | U-87 MG | item: SNHG11 | concentration not given | baseline: untreated | mRNA level | 0.059 fold |
| O=C(C[Se]C(=O)c1cc2ccccc2o1)Nc1cccc(C(F)(F)F)c1 | NCI60 CNS subpanel | cell growth | 10 µM, 48 h, one-dose |  | mean growth percent | -86.6% |
| O=C(C[Se]C(=O)c1ccc2ccccc2c1)Nc1cccc(C(F)(F)F)c1 | NCI60 leukaemia subpanel | NCI60 five-dose screen |  |  | GI50 | 1720 nM |
